# Results gathered from unrelated publications.
# Each line is one published result; not all experiments were run side by side.
Structure (SMILES),assay,system,conditions,endpoint,value
CC(C)n1c(Nc2cccnc2)nc2cnc(Nc3ccc(N4CCN(C)CC4)cc3)nc21,refers to: Toothache,healthy male subjects,"oral, 100 mg, added: itraconazole",adverse event incidence,0%
CNC(=O)c1ccc(-c2cnc3ncc(Cc4ccc5ncccc5c4)n3n2)cc1F,"phase 1 clinical trial, refers to: upper abdominal pain",gastric cancer expansion cohort,"oral, 600 mg twice daily, grade 3 or 4",adverse event incidence,0%
CC[C@H](C)CCCCC(=O)N[C@@H](CCN)C(=O)N[C@H](C(=O)N[C@@H](CCN)C(=O)N[C@H]1CCNC(=O)[C@H]([C@@H](C)O)NC(=O)[C@H](CCN)NC(=O)[C@H](CCN)NC(=O)[C@H](CC(C)C)NC(=O)[C@@H](Cc2ccccc2)NC(=O)[C@H](CCN)NC1=O)[C@@H](C)O,refers to: dry mouth,normal renal function,"intravenous, 0.75 mg/kg",adverse event incidence,37.5%
NCCONC(=O)[C@@H]1CC[C@@H]2CN1C(=O)N2OS(=O)(=O)O,refers to: infusion-related reaction,healthy Chinese men,"intravenous, 2 g, treatment-emergent",adverse event incidence,0%
Cc1c(Cl)c(C)[n+]([O-])c(Cl)c1-c1noc(-c2cc(O)c(O)c([N+](=O)[O-])c2)n1,refers to: Bloating,healthy Chinese subjects,"oral, 100 mg, 4 days",adverse drug reaction incidence,0%
Cc1cc(Nc2ccc(S(F)(F)(F)(F)F)cc2)n2nc(C(C)(F)F)nc2n1,,Plasmodium vivax malaria patients,"oral, 400 mg",adverse event Thrombocytopenia,20%
Cc1c(C(=O)O)ccc2c3n(nc12)[C@@H]1[C@H](C3)N(CC2CC2)[C@@]2(C(=O)Nc3cc(Cl)ccc32)[C@H]1c1cccc(Cl)c1F,"phase Ia trial, refers to: Alopecia",cancer patients,"oral, dose not given, all patients all grades",adverse event incidence,22.2%
O=C1CCc2ccc(OCCCCN3CCN(c4cccc(Cl)c4Cl)CC3)cc2N1,refers to: Xerostomia,"patients, CYP2D6 ultrarapid metabolizers","dose not given, long-acting oral or depot",adverse event incidence,0%
FC(F)(F)c1ccc(CNc2ccc(Cc3c[nH]c4ncc(Cl)cc34)cn2)cn1,refers to: Constipation,patients with advanced solid tumours,"oral, dose not given, grade 3 and 4, possibly related to drug",adverse event incidence,0%
